Experimental data of several laboratories.
Compare with care: the assays were run in different laboratories. ± marks the error that the study gave.

SMILES | test | test system | setting | scale | quantity | value
Cn1cnc(C(=O)N(Cc2ccc(F)c(OC3CCCC3)c2)C2CC3CN([11CH3])CC3C2)c1 (stereo not shown) |  | male ddY mouse, brain | iv, 1 min |  | brain uptake | 0.15 % injected dose/g
N#CCc1cccc(Cl)c1-c1ccc2[nH][11c](=O)[nH]c2c1 |  | mouse | 30 min | relative to: no inhibitor | brain uptake | 0.71 ± 0.08 %ID/g
NS(=O)(=O)NCC(F)(F)c1ccccc1F |  | mouse | oral, 5 mg/kg, AUC based |  | brain to plasma ratio | 2.8
CCC1CC2C(C)=CC3C(=O)CCCC3C=CC(C)=CC2C(=O)O1 (stereo not shown) |  | ICR mouse (male), brain | intravenous, 2 mg/kg, 30 min |  | brain concentration | 10.8 ± 3.6 ng/g
Cc1c(C(=O)Nc2ccn(C)n2)ncn1Cc1cccc(C(F)(F)F)c1 |  | C57BL/6 mouse, non-transgenic, brain | drinking water, 50 mg/kg daily, 10 days |  | brain concentration | 368 ± 115 ng/g
N#Cc1cc(C(=O)OCC[18F])c(C(F)(F)F)nc1N1CCC(C(=O)NS(=O)(=O)c2ccc(Cl)s2)CC1 | dynamic PET | healthy C57BL/6 mouse | intravenous, 11.1 MBq |  | brain SUVmean | 0.12 ± 0.08
Cc1cc2c(c(=O)o1)C=C1CCC(C(C)CNCc3ccc(O)cc3)CC1O2 (stereo not shown) | HPLC-MS | mouse | iv, 25 mg/kg, 5 min |  | brain concentration | 48.8 µM
[11CH3]N1CCCC[C@H]1[C@@H](NC(=O)c1nccc(C(F)(F)F)c1Cl)c1ccsc1 |  | male ddY mouse, brain | iv, 5 min |  | brain uptake | 1.11 % injected dose/g
CCOP(=O)(CC(=O)Nc1ccc(S(=O)(=O)N(CC(N)=O)c2ccc(N(CC(N)=O)S(=O)(=O)c3ccc(OC)cc3)c3ccccc23)cc1)OCC |  | male mouse, Aβ1-42-injected AD model, brain | oral, 40 mg/kg, 6 h |  | brain concentration | 1.58 ± 0.276 ng/mL
O=S(=O)(N[C@H]1CCC[C@@H](N2c3ccccc3CCc3ccccc32)[C@@H]1O)c1ccc(OC(F)(F)F)cc1 |  | mouse, brain | oral, 100 mg/kg twice daily |  | brain exposure | ~8 µM
Cc1ccc(NC(=O)N2CCCN3CCC(c4ccc(C#CC5CCCC5O)cc4)C3C2)cc1 (stereo not shown) |  | CD-1 mouse, brain homogenate | dose not given |  | brain tissue binding | 99.1%
C[C@H](CN(C)Cc1ccccc1)NC(=O)c1ccc(-c2noc(C(F)(F)[18F])n2)cc1 | microPET | mouse | 10 min after injection |  | brain uptake | 3.74 ± 0.21 %ID/cc
O=C1CCc2ccc(NS(=O)(=O)c3cccc(Oc4ccccc4)c3)cc2N1 |  | C57BL/6J mouse, brain | 3 mg/kg | relative to: oral over subcutaneous | brain AUC(0-6 h) ratio | 87%

Repeated from above:
SMILES | test | test system | setting | scale | quantity | value
Cn1cnc(C(=O)N(Cc2ccc(F)c(OC3CCCC3)c2)C2CC3CN([11CH3])CC3C2)c1 (stereo not shown) |  | male ddY mouse, brain | iv, 1 min |  | brain uptake | 0.15 % injected dose/g
N#CCc1cccc(Cl)c1-c1ccc2[nH][11c](=O)[nH]c2c1 |  | mouse | 30 min | relative to: no inhibitor | brain uptake | 0.71 ± 0.08 %ID/g
